Published values from different studies.
Several values in a cell are separate wells, animals, samples, runs or records. Numbers after ± are the reported error.

C#CCN1C(=O)C(CC#C)(C(=O)OCC)Oc2ccccc21 (centres unmarked)  inhibition (L02; cell growth or viability, CCK-8; 50 µM, 72 h): 0.85%
CC(C)CC(O)(CC(C)C)c1cn(C(=O)N2CCCC2)nn1  protein level (mouse T-cells; SILAC proteomics, measured: PAIP2; 1 nM, 6 h, unit not given; baseline: DMSO): 0.9
CSCC[C@H](NC(=O)[C@@H](NC(=O)[C@H](CCC(N)=O)NC(=O)[C@H](CO)NC(=O)[C@@H](N)C(C)C)[C@@H](C)O)C(=O)N[C@@H](CCCNC(=N)N)C(=O)N[C@@H](CCC(N)=O)C(=O)N[C@H](C(=O)N[C@@H](C)C(=O)N[C@H](C(=O)N1CCC[C@H]1C(=O)N[C@@H](CC(C)C)C(=O)N[C@@H](CC(C)C)C(=O)N[C@@H](Cc1c[nH]c2ccccc12)C(=O)N[C@@H](Cc1ccccc1)C(=O)N[C@@H](Cc1c[nH]c2ccccc12)C(=O)N[C@H](C(=O)NCC(=O)N[C@@H](CO)C(=O)N[C@@H](CC(C)C)C(=O)NCCOCCOCCOCCOCCOCCOCCOCCOCCOCCOCCOCCOCCC(=O)N[C@@H](CS)C(N)=O)[C@@H](C)O)C(C)C)[C@@H](C)O  selectivity ratio (H2009; phage binding; 10 min, 37 °C; baseline: control phage): 31 ± 14
CC1OC2OC3C4=C(OC3(C)C12O)C(=O)c1c(O)cccc1C4=O (centres unmarked)  growth percent (HT-29; SRB; 10 µg/mL, 48 h; negative values mean cell killing): -32%
CC(C)C[C@H](NC(=O)[C@@H]1CCCN1C(=O)[C@H](CCCCN)NC(=O)[C@@H](N)CO)C(=O)N1CCC[C@H]1C(=O)N[C@@H](CCC(=O)O)C(=O)N[C@H](C(=O)N[C@H](C(=O)N[C@@H](CC(=O)O)C(=O)N[C@@H](CCC(=O)O)C(=O)N[C@@H](Cc1ccc(O)cc1)C(=O)NCC(=O)NCCOCCOCCOCCOCCOCCOCCOCCOCCOCCOCCOCCOCCOCCOCCOCCOCCOCCOCCOCCOCCOCCOCCOCCOCCC(=O)N[C@@H](CCCCNC(=O)CC[C@H](C(=O)O)N1CCN(CC(=O)O)CCN(CC(=O)O)CC1)C(=O)N1CCN(CCCN(C)c2ccc3nccc(C(=O)NCC(=O)N4CC(F)(F)C[C@H]4C#N)c3c2)CC1)[C@@H](C)O)C(C)C  EC50 (MRC5; T-cell-mediated lysis; 16 h, effector to target 5:1): 0.0392 nM
COc1ccccc1-c1ccncc1C(=O)Nc1nnc(OCc2ccc(Cl)cc2)s1  colony survival (DLD-1 parental; 0.06 µM; baseline: untreated): 97% and 98.2% and 95%
Cc1cc(Oc2nc(N3CC[C@@H](c4ccncc4)C3)ncc2F)[nH]n1  IC50 (U2OS; cell proliferation; bone cancer): > 100000 nM
CC(C)[C@H](NC(=O)[C@H](CCCNC(=N)N)NC(=O)[C@@H]1CCCN1C(=O)[C@@H](NC(=O)[C@H](C)NC(=O)[C@H](Cc1ccc(O)cc1)NC(=O)[C@H](CCC(N)=O)NC(=O)[C@H](CCCCN)NC(=O)[C@H](CCCNC(=N)N)NC(=O)[C@@H]1CCCN1C(=O)[C@H](CCC(=O)O)NC(=O)[C@@H](NC(=O)[C@H](C)N)[C@@H](C)O)[C@@H](C)O)C(=O)N[C@@H](Cc1ccccc1)C(=O)N[C@@H](Cc1c[nH]c2ccccc12)C(=O)N[C@H](C(=O)N[C@@H](CC(=O)O)C(=O)N[C@@H](C)C(=O)N1CCC[C@H]1C(=O)NCC(=O)NCCOCCOCCOCCOCCOCCOCCOCCOCCOCCOCCOCCOCCC(=O)N[C@@H](CS)C(N)=O)[C@@H](C)O  selectivity ratio (H358 lung adenocarcinoma; cell binding, phage binding, measured: output/input phage; 10 min, 37 °C; baseline: control phage): 6.7 ± 3.2
N#Cc1cccc(-c2ccc(=O)n(Cc3cccc(-c4ncc(OCC5CCN(CC(=O)N6CCN(c7ccc8c(c7)C(=O)N(C7CCC(=O)NC7=O)C8=O)CC6)CC5)cn4)c3)n2)c1 (centres unmarked)  protein level fold change (EBC-1; label-free proteomics, measured: RIR1; concentration not given; baseline: control): -3.46
CC(C)C12OC1C1OC13C1(C)CCC4=C(COC4=O)C1CC1OC13C2OC(=O)CCC(=O)OC1OC(CO)C(O)C(O)C1O (centres unmarked)  IC50 (primary airway epithelial cells; cell viability, XTT; 47 h): 4120 nM
CCOC(=O)C1(Cc2ccccc2)Oc2cc(F)ccc2N(Cc2ccccc2)C1=O (centres unmarked)  inhibition (HaCaT; cell growth or viability, CCK-8; 12.5 µM, 72 h): 0.19%
O=C1C=CC(=O)c2c(O)cccc21  selectivity index (HuCC-A1; MTT; baseline: IC50 MRC-5 over IC50 HuCC-A1): 2.12
CN(C)C(=O)[C@@H](NC(=O)c1cc(-c2ccnn2C)ccc1-c1ccc(C(F)(F)F)cc1)c1cccc(C(F)(F)F)c1  IC50 (NKL effector, Ba/F3-MICA target; NKG2D-mediated cell killing, inhibitor; 4 h, effector:target 20:1): 700 nM
CC(C)(C)C(=O)OCOP(=O)(OCOC(=O)C(C)(C)C)C1CCCN(O)C1=O (centres unmarked)  CC50 (SF-295): > 100000 nM
CNC(=S)N/N=C/c1ccc(OCc2ccccc2)cc1  glutathione peroxidase activity (OD450) (IMR-32; measured: GPX3; 500 µg/mL, 24 h; higher = more activity): 0.148 a.u.
O=C(O)c1ccc(-c2nc(-c3ccccc3Cl)c3sccn23)cc1  CD61-positive cells (K562; megakaryocyte differentiation, flow cytometry; 0.1 mM, 48 h): 14% and 14.8%
COc1ccc(NC(=O)c2ccc3[nH]c(-c4ccc(N(C)C)cc4)nc3c2)cn1  PI-positive cells (HCT116; IncuCyte; concentration not given, 20 (unit not given)): 71.8 count and 129 count and 95.8 count
O=c1n(CCNCCOS(=O)(=O)c2ccccc2)c(=O)n(S(=O)(=O)c2ccccc2)c(=O)n1S(=O)(=O)c1ccccc1  viability (A549; cell growth or viability, MTT; 200 µg/mL, 72 h): 20.5%
C=CCN1C(=O)C(CC=C)(C(=O)OCC)Oc2cc(F)ccc21 (centres unmarked)  inhibition (L02; cell growth or viability, CCK-8; 12.5 µM, 72 h): 0.22%
CC(C)C[C@H](NC(=O)[C@H](CC(=O)O)NC(=O)CNC(=O)[C@@H](N)CCCNC(=N)N)C(=O)N[C@@H](C)C(=O)N[C@H](C(=O)N[C@@H](CC(C)C)C(=O)N[C@@H](CCCNC(=N)N)C(=O)N[C@@H](CCC(N)=O)C(=O)N[C@@H](CC(C)C)C(=O)N[C@@H](C)C(=O)N[C@@H](CCC(N)=O)C(=O)N[C@@H](CCC(=O)O)C(=O)N[C@@H](CC(=O)O)C(=O)NCC(=O)N[C@H](C(=O)N[C@H](C(=O)NCC(=O)N[C@H](C(=O)N[C@@H](CCCNC(=N)N)C(=O)NCCOCCOCCOCCOCCOCCOCCOCCOCCOCCOCCOCCOCCC(=O)N[C@@H](CS)C(N)=O)C(C)C)C(C)C)C(C)C)[C@@H](C)O  selectivity ratio (HCC366 lung adenosquamous carcinoma; cell binding, phage binding, measured: output/input phage; 10 min, 37 °C; baseline: control phage): 3.5 ± 1.4
NC(=S)N/N=C/c1ccc(OCc2cccc(F)c2)cc1  glutathione peroxidase activity (OD450) (IMR-32; measured: GPX3; 50 µg/mL, 24 h; higher = more activity): 0.092 a.u.
CC(=O)NCSC[C@H](NC(=O)[C@@H]1CCCN1C(=O)[C@H](C)NC(=O)[C@@H](NC(=O)CNC(=O)[C@@H](NC(=O)[C@H](Cc1c[nH]c2ccccc12)NC(=O)[C@H](C)NC(=O)CNC(=O)[C@H](CO)NC(=O)[C@H](C)NC(=O)[C@@H]1CCCN1C(=O)[C@H](Cc1c[nH]c2ccccc12)NC(=O)[C@H](C)NC(=O)[C@H](C)NC(=O)[C@@H](N)Cc1ccc(O)cc1)[C@@H](C)O)[C@@H](C)O)C(=O)N[C@@H](CO)C(=O)N[C@@H](C)C(=O)NCC(=O)N[C@H](C(=O)NCCOCCOCCOCCOCCOCCOCCOCCOCCOCCOCCOCCOCCC(=O)N[C@@H](CS)C(N)=O)[C@@H](C)O  selectivity ratio (H2009; phage binding; 10 min, 37 °C; baseline: control phage): 310 ± 140
CC[C@H](C)[C@H](NC(=O)CNC(=O)[C@H](Cc1ccc(O)cc1)NC(=O)[C@H](CO)NC(=O)[C@H](Cc1ccc(O)cc1)NC(=O)[C@@H](NC(=O)[C@H](CC(=O)O)NC(=O)[C@H](CO)NC(=O)[C@H](CCC(N)=O)NC(=O)[C@H](Cc1ccccc1)NC(=O)[C@H](CO)NC(=O)[C@H](Cc1ccccc1)NC(=O)[C@@H]1CCCN1C(=O)[C@H](CC(N)=O)NC(=O)[C@H](CC(N)=O)NC(=O)[C@H](CC(=O)O)NC(=O)[C@H](CCC(N)=O)NC(=O)[C@@H]1CCCN1C(=O)[C@H](CCCNC(=N)N)NC(=O)[C@H](CCCNC(=N)N)NC(=O)[C@H](CCCNC(=N)N)NC(=O)[C@H](CCC(N)=O)NC(=O)[C@H](CCCNC(=N)N)NC(=O)[C@H](CCCNC(=N)N)NC(=O)[C@H](CCCCN)NC(=O)[C@H](CCCCN)NC(=O)[C@H](CCCNC(=N)N)NC(=O)CN)C(C)C)C(=O)N[C@H](C(=O)N[C@@H](CC(C)C)C(N)=O)C(C)C  phospho-c-Raf level (MCF7; immunoblot densitometry, measured: phospho-c-Raf Ser338; 10 µM, 48 h, unit not given; baseline: 0 µM): 0.404 and 0.415
